# Experimental data collected from several papers.
# Parts stem from different laboratories: compare values within a part only. “And” joins repeats or separate records; there may be more than shown.
# Sequence of UniProt P36507 (whole entry, looked up): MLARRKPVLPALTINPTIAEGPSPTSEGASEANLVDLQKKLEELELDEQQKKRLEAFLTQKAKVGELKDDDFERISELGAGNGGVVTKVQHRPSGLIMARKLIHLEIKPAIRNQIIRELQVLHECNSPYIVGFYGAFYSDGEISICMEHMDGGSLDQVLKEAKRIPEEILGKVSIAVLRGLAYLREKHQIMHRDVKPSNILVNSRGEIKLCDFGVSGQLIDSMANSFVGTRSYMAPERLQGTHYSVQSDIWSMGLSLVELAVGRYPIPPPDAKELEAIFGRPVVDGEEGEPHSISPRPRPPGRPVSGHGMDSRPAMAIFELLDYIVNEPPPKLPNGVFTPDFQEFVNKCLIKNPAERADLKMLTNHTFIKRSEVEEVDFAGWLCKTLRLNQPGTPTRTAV
# Sequence of UniProt P54753 (whole entry, looked up): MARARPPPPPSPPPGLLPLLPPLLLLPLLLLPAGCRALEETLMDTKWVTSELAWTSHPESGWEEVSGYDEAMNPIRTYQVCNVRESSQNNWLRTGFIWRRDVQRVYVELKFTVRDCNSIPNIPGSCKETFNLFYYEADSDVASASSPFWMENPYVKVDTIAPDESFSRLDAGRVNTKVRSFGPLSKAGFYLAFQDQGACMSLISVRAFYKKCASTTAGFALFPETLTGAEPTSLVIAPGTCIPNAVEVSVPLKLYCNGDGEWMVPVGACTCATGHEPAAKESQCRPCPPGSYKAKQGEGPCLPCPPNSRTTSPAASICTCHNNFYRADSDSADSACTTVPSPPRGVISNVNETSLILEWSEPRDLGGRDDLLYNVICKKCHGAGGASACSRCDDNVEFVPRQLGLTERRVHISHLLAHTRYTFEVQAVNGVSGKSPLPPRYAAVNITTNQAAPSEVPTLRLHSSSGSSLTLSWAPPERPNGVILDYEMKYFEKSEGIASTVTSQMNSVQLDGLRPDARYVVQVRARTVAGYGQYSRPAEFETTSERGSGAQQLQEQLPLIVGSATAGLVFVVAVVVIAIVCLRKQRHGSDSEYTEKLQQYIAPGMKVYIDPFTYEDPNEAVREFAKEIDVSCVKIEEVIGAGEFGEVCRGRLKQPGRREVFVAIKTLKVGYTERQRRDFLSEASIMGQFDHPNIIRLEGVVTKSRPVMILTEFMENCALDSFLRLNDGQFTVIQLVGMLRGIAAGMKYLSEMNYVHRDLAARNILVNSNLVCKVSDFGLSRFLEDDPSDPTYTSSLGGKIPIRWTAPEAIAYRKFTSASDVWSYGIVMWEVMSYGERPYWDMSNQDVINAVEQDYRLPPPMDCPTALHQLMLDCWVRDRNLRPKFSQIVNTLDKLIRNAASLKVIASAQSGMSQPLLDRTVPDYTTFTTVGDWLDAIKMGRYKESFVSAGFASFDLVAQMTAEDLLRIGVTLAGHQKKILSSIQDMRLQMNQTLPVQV
# Sequence of UniProt Q15349 (whole entry, looked up): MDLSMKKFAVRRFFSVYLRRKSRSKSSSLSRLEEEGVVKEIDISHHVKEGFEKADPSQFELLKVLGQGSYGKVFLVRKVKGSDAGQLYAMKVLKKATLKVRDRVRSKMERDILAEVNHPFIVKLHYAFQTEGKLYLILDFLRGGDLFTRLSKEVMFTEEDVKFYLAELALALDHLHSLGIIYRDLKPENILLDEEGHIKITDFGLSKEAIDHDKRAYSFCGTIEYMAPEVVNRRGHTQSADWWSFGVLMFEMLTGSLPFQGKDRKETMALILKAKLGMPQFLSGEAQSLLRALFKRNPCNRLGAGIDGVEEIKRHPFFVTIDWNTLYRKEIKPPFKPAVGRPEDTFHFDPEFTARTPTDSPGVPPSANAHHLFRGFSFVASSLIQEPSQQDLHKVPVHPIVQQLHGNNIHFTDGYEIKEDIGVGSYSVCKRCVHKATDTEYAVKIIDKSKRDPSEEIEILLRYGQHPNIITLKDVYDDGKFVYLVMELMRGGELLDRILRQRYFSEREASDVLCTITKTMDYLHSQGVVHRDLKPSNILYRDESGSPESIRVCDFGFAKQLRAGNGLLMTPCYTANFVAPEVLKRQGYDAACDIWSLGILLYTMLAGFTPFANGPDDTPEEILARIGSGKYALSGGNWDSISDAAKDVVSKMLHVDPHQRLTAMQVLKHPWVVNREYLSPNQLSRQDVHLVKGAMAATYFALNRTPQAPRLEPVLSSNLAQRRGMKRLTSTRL
# Sequence of UniProt Q9Y4K4 (whole entry, looked up): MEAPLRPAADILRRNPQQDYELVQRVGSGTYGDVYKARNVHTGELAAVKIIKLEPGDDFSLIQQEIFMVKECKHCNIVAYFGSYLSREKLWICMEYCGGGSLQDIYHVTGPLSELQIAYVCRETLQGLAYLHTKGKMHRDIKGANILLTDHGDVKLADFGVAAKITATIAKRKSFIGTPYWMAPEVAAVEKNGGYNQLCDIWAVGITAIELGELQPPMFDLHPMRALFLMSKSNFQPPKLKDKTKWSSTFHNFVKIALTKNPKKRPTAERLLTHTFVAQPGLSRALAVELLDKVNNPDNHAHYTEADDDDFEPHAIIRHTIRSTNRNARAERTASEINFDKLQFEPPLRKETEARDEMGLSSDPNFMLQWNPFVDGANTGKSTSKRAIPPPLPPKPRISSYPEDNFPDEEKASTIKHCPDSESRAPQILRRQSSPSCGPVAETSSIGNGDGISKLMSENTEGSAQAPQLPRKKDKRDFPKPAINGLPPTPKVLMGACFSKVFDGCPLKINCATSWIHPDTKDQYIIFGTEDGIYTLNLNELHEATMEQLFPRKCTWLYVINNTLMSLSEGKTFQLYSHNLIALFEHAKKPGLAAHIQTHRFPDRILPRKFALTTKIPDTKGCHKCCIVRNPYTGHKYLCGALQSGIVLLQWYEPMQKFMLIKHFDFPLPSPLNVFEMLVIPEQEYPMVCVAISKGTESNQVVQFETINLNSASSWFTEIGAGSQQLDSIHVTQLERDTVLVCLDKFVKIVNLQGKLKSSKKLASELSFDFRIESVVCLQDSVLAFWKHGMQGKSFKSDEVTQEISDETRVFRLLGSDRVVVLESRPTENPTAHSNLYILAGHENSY
# Sequence of UniProt Q86Z02 (whole entry, looked up): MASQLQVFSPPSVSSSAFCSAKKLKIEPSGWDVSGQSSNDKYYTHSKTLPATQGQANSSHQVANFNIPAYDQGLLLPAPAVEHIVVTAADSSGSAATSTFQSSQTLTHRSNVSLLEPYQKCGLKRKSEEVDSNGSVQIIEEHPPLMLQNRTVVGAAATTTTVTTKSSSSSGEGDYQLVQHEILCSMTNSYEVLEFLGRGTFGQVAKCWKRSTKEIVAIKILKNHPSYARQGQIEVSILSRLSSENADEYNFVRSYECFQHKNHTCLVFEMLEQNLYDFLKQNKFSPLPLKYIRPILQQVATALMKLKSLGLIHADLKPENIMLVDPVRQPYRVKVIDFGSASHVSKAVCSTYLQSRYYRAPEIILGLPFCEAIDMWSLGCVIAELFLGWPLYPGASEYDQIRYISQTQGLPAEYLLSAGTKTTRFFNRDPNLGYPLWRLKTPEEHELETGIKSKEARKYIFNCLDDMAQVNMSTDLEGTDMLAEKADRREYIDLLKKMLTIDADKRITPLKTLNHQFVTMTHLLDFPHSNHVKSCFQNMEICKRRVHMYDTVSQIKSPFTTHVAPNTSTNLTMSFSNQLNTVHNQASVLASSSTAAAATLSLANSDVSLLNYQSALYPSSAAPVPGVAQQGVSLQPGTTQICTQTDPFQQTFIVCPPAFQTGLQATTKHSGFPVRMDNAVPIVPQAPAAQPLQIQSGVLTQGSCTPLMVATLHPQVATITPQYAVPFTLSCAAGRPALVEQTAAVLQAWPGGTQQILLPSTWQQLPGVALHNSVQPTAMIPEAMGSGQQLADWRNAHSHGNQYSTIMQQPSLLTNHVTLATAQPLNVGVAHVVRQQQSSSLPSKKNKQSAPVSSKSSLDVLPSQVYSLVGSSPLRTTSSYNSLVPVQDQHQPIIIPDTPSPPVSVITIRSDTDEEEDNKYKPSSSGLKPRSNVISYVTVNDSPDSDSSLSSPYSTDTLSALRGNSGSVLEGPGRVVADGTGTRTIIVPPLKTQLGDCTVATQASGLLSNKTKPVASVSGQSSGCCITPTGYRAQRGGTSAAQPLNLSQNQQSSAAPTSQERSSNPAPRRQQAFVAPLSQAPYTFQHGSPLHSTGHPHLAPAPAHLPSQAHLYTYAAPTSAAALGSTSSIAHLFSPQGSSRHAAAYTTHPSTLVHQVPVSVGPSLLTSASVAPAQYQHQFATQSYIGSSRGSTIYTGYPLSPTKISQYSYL
# Sequence of UniProt P19784 (whole entry, looked up): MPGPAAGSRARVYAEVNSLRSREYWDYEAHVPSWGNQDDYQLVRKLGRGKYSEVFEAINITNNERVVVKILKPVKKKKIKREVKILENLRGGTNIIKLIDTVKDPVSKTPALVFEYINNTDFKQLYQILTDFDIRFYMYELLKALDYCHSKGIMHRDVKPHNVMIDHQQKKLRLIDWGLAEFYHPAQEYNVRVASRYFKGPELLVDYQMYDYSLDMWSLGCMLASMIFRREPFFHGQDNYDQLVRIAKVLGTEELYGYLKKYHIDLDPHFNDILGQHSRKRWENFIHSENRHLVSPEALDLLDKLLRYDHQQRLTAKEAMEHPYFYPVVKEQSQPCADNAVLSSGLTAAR
# Sequence of UniProt Q00526 (whole entry, looked up): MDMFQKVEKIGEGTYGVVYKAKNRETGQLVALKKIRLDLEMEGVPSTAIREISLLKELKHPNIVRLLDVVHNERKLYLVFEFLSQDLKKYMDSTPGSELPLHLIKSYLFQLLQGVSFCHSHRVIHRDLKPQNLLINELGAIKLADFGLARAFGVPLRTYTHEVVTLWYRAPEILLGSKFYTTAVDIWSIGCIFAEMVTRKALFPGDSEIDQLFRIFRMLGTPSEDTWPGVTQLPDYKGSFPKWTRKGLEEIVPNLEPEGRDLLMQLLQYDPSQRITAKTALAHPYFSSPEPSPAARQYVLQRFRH

# Block 1
# SMILES: COc1cc(-c2nc3ccc(C(=O)NCCCN(C)C)cc3n2C2CCC2)cc(OC)c1OC
# Effect on: binding
# Method: competition with immobilised ligand
# Concentration: 1 µM
target,remaining binding [%]
"Receptor-type tyrosine-protein kinase FLT3 (FLT3, Homo sapiens, UniProt P36888)",87
"Tyrosine-protein kinase ABL1, phosphorylated (ABL1, Homo sapiens, UniProt P00519, Y253F)",67
"Ribosomal protein S6 kinase alpha-2, N-terminal kinase domain (RPS6KA2, Homo sapiens, UniProt Q15349)",100
"Mitogen-activated protein kinase kinase kinase kinase 5 (MAP4K5, Homo sapiens, UniProt Q9Y4K4)",100
"Casein kinase II subunit alpha' (CSNK2A2, Homo sapiens, UniProt P19784)",100
"Tyrosine-protein kinase ABL1, non-phosphorylated (ABL1, Homo sapiens, UniProt P00519, H396P)",14
"Cyclin-dependent kinase-like 2 (CDKL2, Homo sapiens, UniProt Q92772)",100
"Myotonin-protein kinase (DMPK, Homo sapiens, UniProt Q09013)",94

# Block 2
# Structure (SMILES): COCCCCCCC1CC2C(CCC3(C)C(O)CCC23)c2ccc(O)cc21 (stereo not shown)
# Method: microarray
# Reference: untreated
cell line,assay,conditions,log2 fold change
PANC-1,refers to: ACTA2,50 µM,-0.361
A549,refers to: CCL8,10 µM,5.27
A549,refers to: ADAMTS8,10 µM,-0.168
SK-OV-3,refers to: UBB,50 µM,-0.272
PANC-1,refers to: GADD45A,10 µM,0.145
A549,refers to: GADD45A,50 µM,4.29
SK-OV-3,refers to: ADAMTS8,50 µM,0
A549,refers to: UBB,10 µM,-0.434

# Block 3
# Compound: CN(C1COC1)C(C)(C)/C=C(\C#N)C(=O)N1CCC[C@H]1Cn1nc(-c2ccc(Oc3ccccc3)cc2F)c2c(N)ncnc21
# Effect on: kinase activity
target,conditions,inhibition
"Serine/threonine-protein kinase TAO3 (TAOK3, Homo sapiens, UniProt Q9H2K8)",0.1 µM,6%
"Dual specificity mitogen-activated protein kinase kinase 2 (MAP2K2, Homo sapiens, UniProt P36507)",0.1 µM,2%
"Serine/threonine-protein kinase B-raf (BRAF, Homo sapiens, UniProt P15056)",1 µM,-2%
"Fibroblast growth factor receptor 3 (FGFR3, Homo sapiens, UniProt P22607)",0.1 µM,5%
"Cyclin-dependent kinase 3, with cyclin E (CDK3, Homo sapiens, UniProt Q00526)",0.1 µM,-4%
"Ephrin type-B receptor 3 (EPHB3, Homo sapiens, UniProt P54753)",0.1 µM,0%
"Homeodomain-interacting protein kinase 1 (HIPK1, Homo sapiens, UniProt Q86Z02)",1 µM,2%
"MAP kinase-activated protein kinase 2 (MAPKAPK2, Homo sapiens, UniProt P49137)",1 µM,1%

# Mixed results
SMILES,cell line,conditions,measurement,value
Cn1cc(-c2cccc(CN3CCC4(CC3)COc3c4ccc4c3CN([C@H]3CCC(=O)NC3=O)C4=O)c2)cn1,human Treg:Teff co-culture,"concentration not given, Treg suppression",proliferating CD8+ Teff cells,42.7% and 71% and 84.4% and 89.7% and 56.3% and 43.9% and 71.3%

# A few entries again (block 3):
target,conditions,inhibition
"Cyclin-dependent kinase 3, with cyclin E (CDK3, Homo sapiens, UniProt Q00526)",0.1 µM,-4%
"Serine/threonine-protein kinase TAO3 (TAOK3, Homo sapiens, UniProt Q9H2K8)",0.1 µM,6%
"Fibroblast growth factor receptor 3 (FGFR3, Homo sapiens, UniProt P22607)",0.1 µM,5%
"Dual specificity mitogen-activated protein kinase kinase 2 (MAP2K2, Homo sapiens, UniProt P36507)",0.1 µM,2%
